# Results from different studies.
# Protocols differ between the studies behind these lines.
# Target: Interleukin-1 receptor-associated kinase 1 (IRAK1, Homo sapiens, UniProt P51617)
# Chain of UniProt P51617 (whole entry, looked up): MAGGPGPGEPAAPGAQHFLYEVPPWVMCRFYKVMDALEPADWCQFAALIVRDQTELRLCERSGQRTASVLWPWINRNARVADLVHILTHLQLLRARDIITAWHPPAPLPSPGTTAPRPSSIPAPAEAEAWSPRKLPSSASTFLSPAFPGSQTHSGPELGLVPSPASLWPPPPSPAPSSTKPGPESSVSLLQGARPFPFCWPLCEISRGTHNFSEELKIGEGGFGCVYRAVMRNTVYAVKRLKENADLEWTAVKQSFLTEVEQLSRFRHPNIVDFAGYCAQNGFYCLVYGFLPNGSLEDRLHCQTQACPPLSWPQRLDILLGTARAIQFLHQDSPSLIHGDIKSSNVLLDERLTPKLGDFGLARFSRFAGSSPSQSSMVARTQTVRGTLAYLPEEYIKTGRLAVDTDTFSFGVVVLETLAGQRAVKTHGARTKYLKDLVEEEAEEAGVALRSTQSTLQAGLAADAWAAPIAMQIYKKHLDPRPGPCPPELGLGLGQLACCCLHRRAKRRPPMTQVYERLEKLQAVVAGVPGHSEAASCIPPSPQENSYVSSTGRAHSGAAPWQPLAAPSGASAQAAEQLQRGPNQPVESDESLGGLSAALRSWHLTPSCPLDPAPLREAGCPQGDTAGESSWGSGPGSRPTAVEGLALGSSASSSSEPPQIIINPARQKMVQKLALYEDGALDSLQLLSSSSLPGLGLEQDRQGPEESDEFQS
SMILES,test,system,setting,scale,measurement,result
C=CC(=O)N1CCC(COCC(=O)N2CCN(c3nc(-c4cnc(N)nc4C(F)F)nc(N4CCOC[C@@H]4C)n3)CC2)CC1,KINOMEscan,,1 µM,,remaining binding,100%
COc1cc(N2CCN(C)CC2)ccc1Nc1nc(N)n(C(=O)NCc2ccccc2S(=O)(=O)C(C)C)n1,enzyme activity,,10 µM,baseline: control,remaining activity,25%
CNc1ncc2c(/C=C/C(=O)N3CCC(OC)CC3)nn(Cc3cccc(C(F)(F)F)c3)c2n1,"kinase activity, inhibitor",,1 µM,baseline: untreated control,remaining activity,106%
COc1cc(N2CCN(C)CC2)ccc1Nc1nc(N)n(C(=O)NCc2c(Cl)cccc2Cl)n1,enzyme activity,,10 µM,baseline: control,remaining activity,7.4%
C=CC(=O)N1CCC[C@@H](n2nc(-c3ccc(Oc4ccccc4)cc3)c3c(N)ncnc32)C1,,,0.1 µM,,remaining activity,259%
COc1cc(-c2cncc3c2CN(C)Cc2cc(N4CCNCC4)ccc2-3)cc(OC)c1OC,kinase activity,,"1 µM, human enzyme, added: ATP 10 µM",baseline: DMSO control,remaining activity,106%
O=C(NC1CCC1)c1ccc2nc(-c3cccc(NS(=O)(=O)NCCN4CCCCC4)c3)cn2c1,enzyme activity,,10 µM,,remaining activity,73%
CC[C@@H]1[C@H](F)C(=O)N[C@@H]1COc1nccc2cc(C(N)=O)c(OC)cc12,"ATP-site probe binding, ActivX profiling",THP-1 cell lysate,"0.01 mM, Lys2 site",,inhibition,2.3%

# Excerpt of the above:
SMILES,test,system,setting,scale,measurement,result
COc1cc(-c2cncc3c2CN(C)Cc2cc(N4CCNCC4)ccc2-3)cc(OC)c1OC,kinase activity,,"1 µM, human enzyme, added: ATP 10 µM",baseline: DMSO control,remaining activity,106%
